Published values of several laboratories.
Compare with care: the assays were run in different laboratories. Several values in a cell are separate wells, animals, samples, runs or records. Numbers after ± are the reported error.

| SMILES | cell line | test | conditions | scale | viability |
| --- | --- | --- | --- | --- | --- |
| COc1cc2ncnc(Nc3ccc(Oc4ccccc4)c(C)c3C)c2cc1OC | NCI-H2087 (BRAF L597V) | resazurin | 3 µM, 72 h, with: trametinib | relative to: DMSO | 81.9% |
| NC(=O)c1cccc(N)c1 | HBL-1 | – | 0.5 µM, 120 h | – | 118% |
| COc1ccc(-n2nc(C(C)=O)s/c2=N\N=C(/C)c2ccc(NC(=O)c3ccc(C)cc3)cc2)cc1 | HepG2 | – | 0.312 µM | – | 21.2% |
| Nc1ccccc1NC(=O)CCCCCCC(=O)Nc1ccccc1 | HBL-1 | – | 0.1 µM, 120 h | – | 101% |
| Cc1cccc(-c2[nH]c(CNc3ccccc3F)nc2-c2ccc3ncnn3c2)n1 | MM1.S | XTT | 2.5 µM | – | 12% and 17% and 13% |
| COc1ccc(-n2nc(C(C)=O)s/c2=N\N=C(/C)c2ccc(NC(=O)c3ccc(Cl)cc3)cc2)cc1 | MCF7 | – | 0.625 µM | – | 11.8% |
| Oc1ccc(/C=C/c2cc(O)cc(O)c2)cc1 | HBL-1 | – | 1 µM, 120 h | – | 94.5% |
| Nc1cccc2c1CN(C1CCC(=O)NC1=O)C2=O (stereo not drawn) | bone marrow CD138+ myeloma cells | XTT | 1.6 µM, phenol red-free RPMI | – | 17% |
| O=P(O)(O)C(O)(Cn1ccnc1)P(=O)(O)O | MDA-MB-231 | AlamarBlue | 3.8 µM, 48 h | relative to: control | 99 ± 2% |
| CC(C)(C)OC(=O)CN(Cc1ccc(Cl)cc1)Cc1ccc([N+](=O)[O-])s1 | HBL-1 | – | 1 µM, 120 h | – | 103% |
| COc1cc2ncnc(Nc3ccc(Oc4ccccc4)cc3C)c2cc1OC | NCI-H2087 (BRAF L597V) | resazurin | 0.1 µM, 72 h, with: trametinib 0 nM | – | 101% |
| O=C(/C=C/c1ccc(O)cc1)c1ccc(O)cc1O | HBL-1 | – | 1 µM, 120 h | – | 100% |
| CC(=O)c1nn(-c2ccc(Cl)cc2)/c(=N/N=C(\C)c2ccc(NC(=O)c3ccc(C)cc3)cc2)s1 | MCF7 | – | 0.625 µM | – | 26.5% |
| Nc1cccc2c1C(=O)N(C1CCC(=O)NC1=O)C2=O (stereo not drawn) | bone marrow CD138+ myeloma cells | XTT | 0.4 µM, mean of three patients | – | 98% |
| CN1C(=O)C2(NN=C(c3ccccc3)S2)c2cc(Br)ccc21 (stereo not drawn) | TNBC cell lines | MTT | 10 µM | – | active |

Excerpt of the above:
| SMILES | cell line | test | conditions | scale | viability |
| --- | --- | --- | --- | --- | --- |
| CC(C)(C)OC(=O)CN(Cc1ccc(Cl)cc1)Cc1ccc([N+](=O)[O-])s1 | HBL-1 | – | 1 µM, 120 h | – | 103% |
